Measurements pooled from the literature.
Each numbered part is a random draw from the data of one study; scales do not carry over between parts. Positions count from the first letter of the parent shown.

Study 1 — target: CREB3L1, bZIP domain (human); method: DHFR protein complementation; matrix: yeast; baseline: wild-type JUN-FOS pair; direction: higher = stronger binding; measurement: binding fitness
Notes: single substitutions, most at no-binding floor
Starting sequence: JUN, bZIP domain (human); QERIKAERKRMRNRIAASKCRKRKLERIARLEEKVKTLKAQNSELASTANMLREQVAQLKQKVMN; partner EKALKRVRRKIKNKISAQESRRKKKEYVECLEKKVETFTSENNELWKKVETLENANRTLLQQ
K36Q: -1.5 natural log
A49L: -1.43 natural log
A57Q: -1.34 natural log
E33P: -1.5 natural log
T37C: -1.14 natural log
K34E: -1.58 natural log
Q41D: -1.5 natural log
L59W: -1.57 natural log
S43R: -1.25 natural log
A29Q: -1.49 natural log
L31S: -1.36 natural log
I28E: -1.39 natural log
K34H: -1.5 natural log
L38R: -1.47 natural log
V35A: -1.51 natural log
A40T: -1.31 natural log
A29M: -1.38 natural log
T48Q: -1.4 natural log
A49P: -1.41 natural log
A57H: -1.43 natural log
L52R: -1.5 natural log
A49W: -1.4 natural log

Study 2 — method: RNA Bind-n-Seq; molecule type: RNA; matrix: in vitro; concentration: 365 nM; baseline: no-protein control; direction: higher = stronger binding; measurement: RBNS enrichment (R)
Target: RNA binding protein fox-1 homolog 2, RRM domain, GST-SBP tag (RBFOX2, Homo sapiens, UniProt O43251-10, residues 100-194)
Notes: natural RNA segment, single round, ends assumed
Construct (chain): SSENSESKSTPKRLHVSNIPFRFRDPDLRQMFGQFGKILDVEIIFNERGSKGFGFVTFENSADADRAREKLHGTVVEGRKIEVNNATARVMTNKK
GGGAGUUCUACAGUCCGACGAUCAAGUGACCUCCUUUUCCUUAUUUAUAUUUCCUGGCCACUAUUCAGUUGUAAGAUAACAUUUGAAAUGUGAGACUAUAUGGUUUUUAAUAAAAUGUUUGAUGUUUUAUCCCUGGAAUUCUCGGGUGCCAA: 0.579
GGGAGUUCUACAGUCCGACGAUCAGCAGUCCGGGAGGCUGUGGAAAUGUUUAUUUAUAUUGUCCUUUUUUACCGAAGACAUGCAUACUCCAUCGAUGUUGUAUUCACAGUGGCUGAGGAAUUCUUGUACGCAGUGGAAUUCUCGGGUGCCAA: 1.05
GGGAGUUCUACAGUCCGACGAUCAAUGUCGGCGGCGCUGGGGUUGCAGGGAAAAGACAAAUCCUCAAAGCGUGGACGUGUGUCCCCAUGGCUUGUGGAUCAGCUAAGCUCGGGAUCAUUUCCAUAAGUCUGCUUGGAAUUCUCGGGUGCCAA: 0.593
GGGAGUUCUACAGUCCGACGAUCUGGGAUCAAACCCAGGACAGCAUUCAUCCUAGGCAAAUGCUGGACCAUACCCUCAGCCCAUCACCAAUAUUUUAACUGAGGCAUUGCAUUAAACCACACACCACACACACUGGAAUUCUCGGGUGCCAA: 2.12
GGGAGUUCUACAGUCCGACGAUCGCCGGGAGACCAGUGUUAGAGGAUCCAAGCGACCUAAACAGCUGCUUUAUGAAAUAUCCUUACUUUAUCUGGGCUUAAUAAGUCACUGACAUCAGCACUGCCAACUCGGCUGGAAUUCUCGGGUGCCAA: 0.293
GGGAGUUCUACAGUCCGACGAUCUACUUAAUUCCUGUGGGCAGGUUAUAUUUUAAGUUCAAAUGCAUUGCUUUAACCUUUGGUUACUUUUAUUCUGUUAAACAGAAUUGAAGAAAGAGUAUUAUACCAGAGUGUGGAAUUCUCGGGUGCCAA: 0.453
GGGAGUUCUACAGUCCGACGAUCCAGCAGCAGCUGCACUGGAACAGUCAGAGCAGGGAGCCUCUUCCUCAACCCAGCUUUUUGUCAUUCACUUCCUUUUGUUCUCUCUCUGGUCACUGCCCUUACCUGACCCUUGGAAUUCUCGGGUGCCAA: 1.14
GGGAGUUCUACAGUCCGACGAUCCUCCUCGGCCUUGAAGGCCCAAUGACAGGCCUUGCCUCAAGGCCUUUCCUUCUCAGAGCCUCCUGAACCCCUGGGUAGGGCCUCCCCAUGUACCCUGCCGACUGACUGAGUGGAAUUCUCGGGUGCCAA: 0.391
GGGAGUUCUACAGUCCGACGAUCAGAAGAGAAGGUGCUCACUAACAGAGGUACAUUACUGCAAUGUUCUCUUAACAGUUAAACAAGCUGUUUACAGUUUAAACUGCUGAAUAUUAUUUGAGCUAUUUAAAGCUUGGAAUUCUCGGGUGCCAA: 0.304
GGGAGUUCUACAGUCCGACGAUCCACAUCUCUCUUGAGAAUCCUUUAAGUGCUGUUUAGCCUCCCAACACAUAGAUGCAUAGGAUGGAGUUCCCUGAGGAAAACAGCACUUGAGCAUGGUGAGGAGUAGCCAGUGGAAUUCUCGGGUGCCAA: 7.85
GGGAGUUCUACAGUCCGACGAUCAUGCAAAUAGAUUUAAUUCCUAUUUACUUUAAGAAUGAAAAACAAUGUUCAUUUUCCUACCUAAACAGGGUGGUUCAACAUAAAGGCUGAUGUUGUGUCCGUUUUGUAUUUGGAAUUCUCGGGUGCCAA: 0.432
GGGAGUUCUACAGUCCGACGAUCAUACUUCAACUGAUUAUCACACUUGAAAUGCUAAUUAUCAGUGGAAUUUGUCUCCUAUUCUUAAGUACUUCUGCAAGGUAUUAGAUGCUGCUCCUUACCAAAAAUCAGUCUGGAAUUCUCGGGUGCCAA: 0.339

Study 3 — method: protein-binding microarray; molecule type: double-stranded DNA, one strand shown; matrix: in vitro; concentration: 250 nM; notes: 60-bp whole probe; with: salmon DNA 0.4 mg/ml; baseline: random background probes; direction: higher = stronger binding; measurement: log fluorescence; all sequences stand within: GCCTAGCAC … GTCTTGATTCGCTTGACGCTGCTG
Target: Interferon regulatory factor 5, full length, phosphomimetic (IRF5, Homo sapiens, UniProt Q13568-2, residues 1-514, K96S/S451D/S453D/S456D/S462D)
GACGGACTGCTACTGTTGACGTGCTAG: -0.526 z-score
TTAGGACTGGCTTTCGGTTAGTGCTAG: 8.56 z-score
TTAGGTCTCGGTATCGGGTAGTGCTAG: 2.06 z-score
TTAGGTTTCCTTTTCGTTTAGTGCTAG: 3.21 z-score
TTAGAAATGGGGTATCGATTAGTGCTA: 2.99 z-score
TTTGCTTTCTTTTTGCACTCGTGCTAG: 3.13 z-score
TTGCCAATGCTTCTGGTCTTGTGCTAG: -0.0287 z-score
TACGAACTGAGTTTCGAGACGTGCTAG: 4.7 z-score
GACGACATCAGTATCGAGACGTGCTAG: 1.8 z-score
TTAGATTTCGGGTATCGATTTGTGCTA: 7.44 z-score
TTACCCCATCCCCCTTTTCTGTGCTAG: 0.315 z-score
ATAGGTTTCCTACTGCTTTAGTGCTAG: 0.474 z-score
TCAGGTATCCTTATCCTTTAGTGCTAG: 0.154 z-score
TTAGATTCCGGGTATCGATTAGTGCTA: 3.79 z-score
TTTCTCTGCTCTTTTCAACAAGTGCTA: 5.59 z-score
TTAGGACTGCTTCCCCTTTAGTGCTAG: -0.162 z-score
TCATAAGTTTCACTCTGCACTGTGCTA: 5.91 z-score
GACGAACTGAGTAGCGAGACGTGCTAG: -0.378 z-score
TTAGATTTCAGTTTGGATTAGTGCTAG: 2.11 z-score
GCCGGACTGGGACTGGGGACGTGCTAG: -0.746 z-score
TTAGGTGCCGGTTTCGGTTAGTGCTAG: 8.39 z-score
GATGGTATCGGGTTTCGGGACGTGCTA: 5.39 z-score
TCATATCTGGGTTCCCCACTGTGCTAG: 0.363 z-score
TCATTTCTCTTTCATTGCACTGTGCTA: 5.01 z-score
GACGGGCTGGGGACTGGGGACGTGCTA: -0.632 z-score

Study 4 — method: protein binding microarray; molecule type: double-stranded DNA, one strand shown; matrix: in vitro; concentration: not given; baseline: not given; direction: higher = stronger binding; measurement: E-score
Target: Histone acetyltransferase KAT6A, winged helix 1, GST fusion (KAT6A, Homo sapiens, UniProt Q92794, residues 1-85)
Notes: 8-mer, flanks averaged, mean of 2 arrays, mostly near background
Construct (chain): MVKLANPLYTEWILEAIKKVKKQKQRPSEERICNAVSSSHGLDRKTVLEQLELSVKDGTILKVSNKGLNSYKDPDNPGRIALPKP
GGGTGAGA: -0.11
ACGCAGGC: 0.175
GGAGCACA: -0.148
CACAGCGC: 0.284
CACCCAAG: -0.0265
CCTGGTAC: -0.105
GGAATCTA: -0.0975
CTCATCCC: -0.078
CTCCTCAA: -0.0372
CCGCTGTA: 0.186
ACAGACTA: -0.215
ATGAGTAG: -0.133
AGGTTTCC: -0.119
GAATTACC: 0.0516
TCGGCCCA: 0.101
GGCATGGA: -0.113
GCTGTTCC: -0.0631
AAGATAGA: -0.0949
CCTAAAGC: -0.0364
AACTCAAG: -0.184
ACGAACAT: -0.0608
CGCGCGTC: 0.445
CCTGCTAC: -0.1
AATTTGGC: -0.163

Study 5 — target: CCNA2, cyclin fold, Cln2 fusion (human); method: yeast growth competition, sequencing; matrix: yeast; notes: strong parent motif; baseline: not given; direction: higher = stronger binding; measurement: normalised enrichment score
Starting sequence: RBL1 docking peptide (human); GSAKRRLFGEDPP; partner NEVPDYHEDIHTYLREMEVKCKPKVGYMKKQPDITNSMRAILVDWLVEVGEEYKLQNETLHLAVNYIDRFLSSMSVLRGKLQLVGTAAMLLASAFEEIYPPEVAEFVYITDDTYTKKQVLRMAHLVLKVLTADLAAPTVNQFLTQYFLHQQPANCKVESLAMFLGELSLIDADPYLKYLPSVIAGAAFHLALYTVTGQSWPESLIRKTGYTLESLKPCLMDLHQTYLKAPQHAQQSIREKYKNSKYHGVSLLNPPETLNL
GSAKRRLFGRDPP [E10R]: 5.28
GSAKRRLRGEDPP [F8R]: 0.469
GSAKRRLFGEAPP [D11A]: 5.88
GSAKRRLFGWDPP [E10W]: 4.83
GSQKRRLFGEDPP [A3Q]: -0.101
GSAKRRLFGEDAP [P12A]: 5.92
GSAKRRLPGEDPP [F8P]: 0.827
GSAKARLFGEDPP [R5A]: 1.17
GSAKRRLFKEDPP [G9K]: 6.05
GSRKRRLFGEDPP [A3R]: 1.95
GNAKRRLFGEDPP [S2N]: 5.49
GSAKRRLCGEDPP [F8C]: 0.6
GSAKRRLFGETPP [D11T]: 5.7
GSAKGRLFGEDPP [R5G]: 0.78
GSAERRLFGEDPP [K4E]: -0.244
GSAKRRLFGEDPF [P13F]: 5
GSAKRRLFIEDPP [G9I]: 6.81

Study 6 — method: universal PBM; molecule type: double-stranded DNA, one strand shown; matrix: in vitro; concentration: 600 nM; direction: higher = stronger binding; measurement: E-score
Target: Sal-like protein 4, full length isoform A (SALL4, Homo sapiens, UniProt Q9UJQ4, residues 1-1053)
Sequence of UniProt Q9UJQ4 (whole entry, looked up): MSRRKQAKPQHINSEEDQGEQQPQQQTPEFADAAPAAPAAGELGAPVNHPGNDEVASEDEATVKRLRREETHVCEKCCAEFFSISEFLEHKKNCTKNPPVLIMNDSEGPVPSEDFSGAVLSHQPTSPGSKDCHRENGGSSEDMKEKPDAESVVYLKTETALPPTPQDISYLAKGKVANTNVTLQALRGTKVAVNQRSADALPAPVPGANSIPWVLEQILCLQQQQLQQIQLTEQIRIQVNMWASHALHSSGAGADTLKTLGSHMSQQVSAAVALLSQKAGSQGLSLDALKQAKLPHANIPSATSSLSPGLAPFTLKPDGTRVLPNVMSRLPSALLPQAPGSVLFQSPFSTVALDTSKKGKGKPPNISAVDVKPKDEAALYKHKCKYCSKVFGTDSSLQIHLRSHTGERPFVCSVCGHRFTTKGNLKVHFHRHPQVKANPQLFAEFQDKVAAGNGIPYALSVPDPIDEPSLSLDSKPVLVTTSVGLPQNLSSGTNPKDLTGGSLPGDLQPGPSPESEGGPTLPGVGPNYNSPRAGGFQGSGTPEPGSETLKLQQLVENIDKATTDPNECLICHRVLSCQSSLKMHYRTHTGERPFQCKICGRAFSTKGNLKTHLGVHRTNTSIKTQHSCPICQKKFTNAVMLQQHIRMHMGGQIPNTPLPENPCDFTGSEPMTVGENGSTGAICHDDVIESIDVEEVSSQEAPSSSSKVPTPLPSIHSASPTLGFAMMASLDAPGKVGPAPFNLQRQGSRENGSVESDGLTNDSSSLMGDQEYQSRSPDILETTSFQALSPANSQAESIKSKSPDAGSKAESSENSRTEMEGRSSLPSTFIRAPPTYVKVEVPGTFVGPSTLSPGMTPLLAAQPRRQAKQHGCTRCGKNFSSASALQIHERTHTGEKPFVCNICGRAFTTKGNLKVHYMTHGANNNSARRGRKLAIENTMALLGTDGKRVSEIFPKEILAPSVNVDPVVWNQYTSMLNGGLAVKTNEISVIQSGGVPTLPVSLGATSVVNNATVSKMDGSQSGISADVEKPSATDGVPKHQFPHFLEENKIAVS
Notes: 8-mer, flanks averaged, mean of replicates
CAGTTCTC: -0.158
GAAGCAGC: -0.189
TACTCAAA: 0.2
CGCGTACC: -0.268
CAGCACTG: -0.237
AATAGCAA: 0.325
CCGTGAAC: -0.166
ACTGGAAA: 0.104
CATCCGAG: -0.115
ATTGCGCC: 0.086
AGGACTGG: -0.0925
TATACGGA: 0.111
AGAATAGA: 0.161
ACAGTGAC: -0.0126
CTATTCAC: 0.0714
ACTAGAAG: 0.0608
ATGAGTTA: 0.173
ATCGATGG: 0.109
GAACCTTA: -0.0499
ACCTCGGG: -0.267
GAAGGAGA: 0.0616
AACGCGCA: -0.0712
TAAATTAA: 0.324
